Experimental data from different studies.
Lines come from different studies, so protocols differ. ± marks the error that the study gave.
fMet-Leu-Phe receptor: fMet-Leu-Phe receptor (Mus musculus, UniProt P33766)
Chain of UniProt P33766 (whole entry, looked up): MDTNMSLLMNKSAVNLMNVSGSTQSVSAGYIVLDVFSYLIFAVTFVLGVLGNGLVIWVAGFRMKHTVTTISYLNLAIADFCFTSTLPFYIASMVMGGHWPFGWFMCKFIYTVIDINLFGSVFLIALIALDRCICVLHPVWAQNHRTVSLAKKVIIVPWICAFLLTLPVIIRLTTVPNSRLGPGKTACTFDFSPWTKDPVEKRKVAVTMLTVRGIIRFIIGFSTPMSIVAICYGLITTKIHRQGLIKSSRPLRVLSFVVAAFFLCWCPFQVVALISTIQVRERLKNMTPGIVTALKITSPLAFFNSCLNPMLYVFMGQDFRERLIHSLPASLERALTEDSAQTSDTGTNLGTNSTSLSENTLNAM
TRPV1: Transient receptor potential cation channel subfamily V member 1 (TRPV1, Homo sapiens, UniProt Q8NER1)
Chain of UniProt Q8NER1 (whole entry, looked up): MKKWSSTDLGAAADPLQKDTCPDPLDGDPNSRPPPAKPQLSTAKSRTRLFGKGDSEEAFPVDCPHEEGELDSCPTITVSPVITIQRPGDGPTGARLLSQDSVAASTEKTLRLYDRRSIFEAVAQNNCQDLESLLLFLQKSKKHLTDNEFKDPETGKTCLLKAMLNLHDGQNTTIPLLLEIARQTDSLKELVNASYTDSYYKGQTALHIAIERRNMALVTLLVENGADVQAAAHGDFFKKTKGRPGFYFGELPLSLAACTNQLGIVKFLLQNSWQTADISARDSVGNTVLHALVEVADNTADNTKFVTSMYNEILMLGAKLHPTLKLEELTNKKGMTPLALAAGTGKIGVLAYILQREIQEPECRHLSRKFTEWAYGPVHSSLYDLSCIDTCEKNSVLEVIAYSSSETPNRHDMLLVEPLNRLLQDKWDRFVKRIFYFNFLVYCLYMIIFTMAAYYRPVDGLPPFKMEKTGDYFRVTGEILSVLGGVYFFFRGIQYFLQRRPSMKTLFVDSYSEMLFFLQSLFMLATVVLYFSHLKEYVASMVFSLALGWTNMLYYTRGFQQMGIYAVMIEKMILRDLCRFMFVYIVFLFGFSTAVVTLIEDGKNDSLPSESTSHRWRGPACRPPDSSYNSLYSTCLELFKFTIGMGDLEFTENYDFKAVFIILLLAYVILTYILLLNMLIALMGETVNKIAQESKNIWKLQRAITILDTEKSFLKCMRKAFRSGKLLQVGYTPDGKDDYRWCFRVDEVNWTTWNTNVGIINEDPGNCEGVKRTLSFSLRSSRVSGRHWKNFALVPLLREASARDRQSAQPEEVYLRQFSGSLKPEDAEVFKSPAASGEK
MCOLN3: Mucolipin-3 (MCOLN3, Homo sapiens, UniProt Q8TDD5)
Chain of UniProt Q8TDD5 (whole entry, looked up): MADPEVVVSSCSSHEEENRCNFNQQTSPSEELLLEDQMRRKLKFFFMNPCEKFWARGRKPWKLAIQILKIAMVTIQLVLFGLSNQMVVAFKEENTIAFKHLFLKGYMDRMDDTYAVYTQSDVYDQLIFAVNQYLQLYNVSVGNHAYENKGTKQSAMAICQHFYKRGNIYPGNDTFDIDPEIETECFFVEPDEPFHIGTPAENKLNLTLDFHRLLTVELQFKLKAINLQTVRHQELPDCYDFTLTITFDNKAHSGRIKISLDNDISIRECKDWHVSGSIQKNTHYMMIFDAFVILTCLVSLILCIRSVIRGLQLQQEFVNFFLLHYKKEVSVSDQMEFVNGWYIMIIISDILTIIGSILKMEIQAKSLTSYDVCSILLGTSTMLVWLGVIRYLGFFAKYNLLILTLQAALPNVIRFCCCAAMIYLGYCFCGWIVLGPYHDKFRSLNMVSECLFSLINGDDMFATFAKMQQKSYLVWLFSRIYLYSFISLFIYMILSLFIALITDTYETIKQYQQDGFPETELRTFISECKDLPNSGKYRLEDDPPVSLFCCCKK
Vcp: Transitional endoplasmic reticulum ATPase (Vcp, Mus musculus, UniProt Q01853)
Chain of UniProt Q01853 (whole entry, looked up): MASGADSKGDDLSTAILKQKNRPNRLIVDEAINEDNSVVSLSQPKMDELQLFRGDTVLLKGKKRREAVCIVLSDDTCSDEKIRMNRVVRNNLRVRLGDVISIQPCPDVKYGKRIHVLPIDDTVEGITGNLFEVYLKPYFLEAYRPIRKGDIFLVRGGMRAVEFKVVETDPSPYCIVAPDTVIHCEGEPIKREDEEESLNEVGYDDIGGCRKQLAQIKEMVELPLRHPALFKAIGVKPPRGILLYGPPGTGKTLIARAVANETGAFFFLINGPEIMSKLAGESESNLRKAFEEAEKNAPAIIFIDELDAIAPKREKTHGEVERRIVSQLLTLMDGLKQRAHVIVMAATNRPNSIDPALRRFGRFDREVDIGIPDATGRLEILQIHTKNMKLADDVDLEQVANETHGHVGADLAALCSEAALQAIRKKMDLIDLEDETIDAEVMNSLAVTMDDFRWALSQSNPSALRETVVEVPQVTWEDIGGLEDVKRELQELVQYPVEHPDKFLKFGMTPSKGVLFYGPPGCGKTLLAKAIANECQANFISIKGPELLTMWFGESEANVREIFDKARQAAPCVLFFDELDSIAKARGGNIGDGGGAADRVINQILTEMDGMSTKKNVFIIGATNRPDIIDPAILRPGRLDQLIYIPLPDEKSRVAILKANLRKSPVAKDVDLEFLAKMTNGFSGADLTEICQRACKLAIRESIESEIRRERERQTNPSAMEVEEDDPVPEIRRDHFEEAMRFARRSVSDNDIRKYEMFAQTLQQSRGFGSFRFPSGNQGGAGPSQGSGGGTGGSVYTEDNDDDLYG
FPR1: fMet-Leu-Phe receptor (FPR1, Homo sapiens, UniProt P21462)
Chain of UniProt P21462 (whole entry, looked up): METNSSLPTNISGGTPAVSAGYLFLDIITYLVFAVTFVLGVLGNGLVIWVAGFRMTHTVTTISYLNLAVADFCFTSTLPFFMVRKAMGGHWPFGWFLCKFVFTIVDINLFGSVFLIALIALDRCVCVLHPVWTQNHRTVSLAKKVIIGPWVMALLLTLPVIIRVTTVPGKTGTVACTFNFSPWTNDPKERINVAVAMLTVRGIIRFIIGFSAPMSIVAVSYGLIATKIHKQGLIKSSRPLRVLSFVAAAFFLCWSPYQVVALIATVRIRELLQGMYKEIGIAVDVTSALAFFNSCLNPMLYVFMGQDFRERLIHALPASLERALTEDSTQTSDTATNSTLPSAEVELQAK
Chain of UniProt Q07889 (whole entry, unmodified, looked up): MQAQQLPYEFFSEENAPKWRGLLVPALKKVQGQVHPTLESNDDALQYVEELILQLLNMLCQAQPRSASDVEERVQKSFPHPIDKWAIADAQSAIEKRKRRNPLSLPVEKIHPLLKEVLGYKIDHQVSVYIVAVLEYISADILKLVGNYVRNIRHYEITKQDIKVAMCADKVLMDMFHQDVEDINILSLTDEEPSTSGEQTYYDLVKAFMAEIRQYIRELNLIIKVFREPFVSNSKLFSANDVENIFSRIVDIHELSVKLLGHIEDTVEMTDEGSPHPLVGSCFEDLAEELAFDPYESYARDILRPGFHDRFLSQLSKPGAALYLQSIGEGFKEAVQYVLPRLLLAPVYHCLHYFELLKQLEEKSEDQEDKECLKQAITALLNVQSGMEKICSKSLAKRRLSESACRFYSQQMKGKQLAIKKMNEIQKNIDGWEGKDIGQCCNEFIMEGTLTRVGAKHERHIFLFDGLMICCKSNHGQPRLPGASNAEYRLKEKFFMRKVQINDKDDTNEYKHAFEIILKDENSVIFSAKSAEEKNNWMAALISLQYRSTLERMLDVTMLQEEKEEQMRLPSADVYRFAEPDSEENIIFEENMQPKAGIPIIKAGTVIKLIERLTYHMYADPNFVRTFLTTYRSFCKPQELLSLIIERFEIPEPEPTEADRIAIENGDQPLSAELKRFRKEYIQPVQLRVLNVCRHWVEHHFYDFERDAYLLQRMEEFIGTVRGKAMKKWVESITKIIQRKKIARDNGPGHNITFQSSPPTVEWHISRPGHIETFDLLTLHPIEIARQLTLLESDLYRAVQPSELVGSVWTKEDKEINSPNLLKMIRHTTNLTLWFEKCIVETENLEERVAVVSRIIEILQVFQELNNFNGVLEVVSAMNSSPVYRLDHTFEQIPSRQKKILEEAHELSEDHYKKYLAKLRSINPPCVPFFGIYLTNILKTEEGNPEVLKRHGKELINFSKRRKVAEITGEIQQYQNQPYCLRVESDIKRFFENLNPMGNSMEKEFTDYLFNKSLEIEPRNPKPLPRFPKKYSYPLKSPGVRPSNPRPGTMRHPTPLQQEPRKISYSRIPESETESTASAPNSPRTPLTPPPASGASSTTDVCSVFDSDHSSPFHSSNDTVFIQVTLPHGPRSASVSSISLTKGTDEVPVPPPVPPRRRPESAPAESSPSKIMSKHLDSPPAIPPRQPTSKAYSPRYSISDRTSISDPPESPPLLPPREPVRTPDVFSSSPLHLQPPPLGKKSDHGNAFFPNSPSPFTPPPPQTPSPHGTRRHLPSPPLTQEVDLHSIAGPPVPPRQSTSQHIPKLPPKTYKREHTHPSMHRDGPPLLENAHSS
Chain of UniProt O75469 (whole entry, looked up): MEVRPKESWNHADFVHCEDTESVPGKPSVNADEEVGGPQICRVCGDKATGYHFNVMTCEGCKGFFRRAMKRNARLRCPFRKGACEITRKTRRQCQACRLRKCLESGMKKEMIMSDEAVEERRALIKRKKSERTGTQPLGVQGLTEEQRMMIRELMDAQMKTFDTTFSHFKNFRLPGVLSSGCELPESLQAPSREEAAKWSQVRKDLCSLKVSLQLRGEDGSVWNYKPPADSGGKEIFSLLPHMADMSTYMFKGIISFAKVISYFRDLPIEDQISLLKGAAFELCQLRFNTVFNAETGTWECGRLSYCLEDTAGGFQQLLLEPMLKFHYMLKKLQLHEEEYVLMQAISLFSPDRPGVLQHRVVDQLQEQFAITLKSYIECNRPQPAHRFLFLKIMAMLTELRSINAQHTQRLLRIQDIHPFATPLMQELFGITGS
Chain of UniProt Q15077 (whole entry, looked up): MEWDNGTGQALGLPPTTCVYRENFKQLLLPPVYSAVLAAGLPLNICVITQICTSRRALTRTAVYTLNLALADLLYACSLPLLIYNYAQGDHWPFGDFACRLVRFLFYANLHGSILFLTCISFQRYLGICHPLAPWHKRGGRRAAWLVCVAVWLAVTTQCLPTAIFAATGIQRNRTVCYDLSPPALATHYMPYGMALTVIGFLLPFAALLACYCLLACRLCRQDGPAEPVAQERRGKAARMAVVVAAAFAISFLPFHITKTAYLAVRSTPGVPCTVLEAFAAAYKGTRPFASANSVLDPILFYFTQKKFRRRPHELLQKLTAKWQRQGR

Substance	target	assay	test system	conditions	scale	EC50
CC1=NN(CC(=O)Nc2ccc(Br)cc2)C(=O)CC1C (racemic)	fMet-Leu-Phe receptor	calcium signal, agonist				25.1 µM
CC1CCN(c2nc(C(F)(F)F)ccc2CNC(=O)Nc2ccc(NS(C)(=O)=O)c(F)c2)CC1	TRPV1	45Ca2+ uptake, agonist	CHO expressing human TRPV1		baseline: capsaicin 1 µM maximal response	> 3 µM
Cc1ccccc1S(=O)(=O)c1c(C)cc(C)n(C(C)C)c1=O	MCOLN3	calcium flux, agonist, Fluo-8 calcium	HEK293 expressing TRPML3			2.29 ± 0.19 µM
CC1CCN(c2nc(C(F)(F)F)ccc2CNC(=O)N(C)c2ccc(NS(C)(=O)=O)c(F)c2)CC1	TRPV1	45Ca2+ uptake, agonist	CHO expressing human TRPV1		baseline: capsaicin 1 µM maximal response	> 3 µM
CC1CC(C)(C)N(C(=O)CN2C(=O)c3ccccc3C2=O)c2ccccc21 (stereo not shown)	Mucolipin-1 (MCOLN1, Homo sapiens, UniProt Q9GZU1, L15A/L16A)	ion current, agonist, whole-cell patch clamp	HEK293 tetracycline-inducible	pH 4.6, with: extracellular Ca2+ 1.5 mM		9.7 µM
C[S+](C)[O-]	fMet-Leu-Phe receptor	calcium signal, agonist, fluorescence				97000 µM
TWPKHFDKHTFYSILKLGKH-OH (C-acid)	LRP1, cluster 4 (Homo sapiens, UniProt Q07954)	binding, plate ELISA	peptide	biotinylated peptide, CL4-Fc fusion		0.045 µM
c1ccc(C(CCNC2CCNCC2)c2ccccc2)cc1	Son of sevenless homolog 1, catalytic domain (SOS1, Homo sapiens, UniProt Q07889)	nucleotide exchange, activator		with: BODIPY-GDP-loaded RAS		8.7 µM
Clc1ccc2[nH]c3c(N4CCC5(CC4)OCCO5)ncnc3c2c1	Vcp	ATPase activity, activator, Kinase-Glo		Vcp 50 nM, with: ATP 62.5 µM		2.41 µM
Cc1ccc(C(C)C)cc1O	Transient receptor potential cation channel subfamily V member 3 (TRPV3, Homo sapiens, UniProt Q8NET8)	ion current, agonist, patch clamp				180 µM
Nc1ncnc2c1ncn2[C@@H]1O[C@H](COP(=O)(O)OP(=O)(O)OP(=O)(O)O)[C@@H](O)[C@H]1O	P2X purinoceptor 3, with TMEM163 (P2RX3, Homo sapiens, UniProt P56373)	ion current, agonist, two-electrode voltage clamp	Xenopus oocytes	holding potential -30 mV, with: TMEM163 co-expression		0.26 ± 0.03 µM
Nc1nc2c(ncn2[C@@H]2O[C@@H]3COP(=O)(O)O[C@H]3[C@H]2O)c(=O)[nH]1	CNGA3 (Homo sapiens, UniProt Q16281)	channel activation, agonist, inside-out patch clamp	Xenopus oocytes	60 min, control patches without MMP9		12.6 µM
Cc1cc(C2=C(c3ccccc3)C3CC(S(=O)(=O)Oc4ccc(O)cc4)C2[S+]3[O-])ccc1O (stereo not shown)	Estrogen receptor (ESR1, Homo sapiens, UniProt P03372)	reporter gene, agonist, luciferase				0.34 µM
Cc1ccc(N2CCN(S(=O)(=O)N3CCCCC3)CC2)c(C)c1	MCOLN3	calcium flux, agonist, Fluo-8 calcium	HEK293 expressing TRPML3			2.11 ± 0.69 µM
O=c1ccn([C@@]23C[C@H]2[C@@H]2COP(=O)(O)OP(=O)(O)O[C@H]2[C@H]3O)c(=O)[nH]1	P2Y purinoceptor 6 (P2RY6, Homo sapiens, UniProt Q15077)	PLC activation, measured: inositol phosphates	1321-N1 expressing target			> 10 µM
COc1ccccc1C1CN=NC12CCCc1ccccc1C2=O (stereo not shown)	MCOLN3	calcium flux, agonist, Fluo-8 calcium	HEK293 expressing TRPML3			3.74 ± 1.02 µM
Nc1nc2c(ncn2[C@@H]2O[C@@H]3COP(=O)(O)O[C@H]3[C@H]2O)c(=O)[nH]1	Cnga2 (Mus musculus, UniProt Q62398, M2V)	channel current, agonist, inside-out patch clamp	Xenopus oocytes	holding +100 mV		1.2 µM
CCC(C(=O)Nc1ccc(Br)cc1)n1nc(C)cc(Cc2cccc(OC)c2)c1=O (racemic)	FPR1	calcium mobilization, agonist	HL-60 transfected with FPR1			1.3 µM
CC(C)C[C@H](NC(=O)[C@@H](O)[C@H](N)Cc1ccccc1)C(=O)N1CCC[C@H]1C(=O)N1CCC[C@H]1C(=O)NCCCC[C@H](NC(=O)CN(C)C)C(=O)N[C@@H](CS)C(N)=O	Aminopeptidase N (ANPEP, Homo sapiens, UniProt P15144)	enzyme activity, inhibitor	HT-1080	30 min, with: Ala-pNA 2 mM		39.6 µM
CC(C)(C)c1ccc(-c2nc3n(c(=O)c2C#N)CCCS3)cn1	Ionotropic glutamate receptor NMDA 1/2D (Rattus norvegicus, UniProt P35439+Q62645)	ion current, agonist, two-electrode voltage clamp		oocytes		5.7 µM
CCC[C@H](C(=O)Nc1ccc(Br)cc1)n1nc(C)cc(Cc2cccc(OC)c2)c1=O	FPR1	calcium mobilization, agonist	HL-60 transfected with FPR1			3 µM
COCCNC(=O)NC(=O)COC(=O)c1cc([N+](=O)[O-])ccc1Sc1nc(C)cs1	Vcp	ATPase activity, activator, Kinase-Glo		Vcp 50 nM, with: ATP 62.5 µM		24.7 µM
Cc1ccc(S(=O)(=O)Nc2ccccc2-c2ccccc2)cc1	MCOLN3	calcium flux, agonist, Fluo-8 calcium	HEK293 expressing TRPML3			2.41 ± 0.87 µM
O=C(O)CCc1ccc(NCc2cccc(Oc3ccccc3)c2)cc1	Free fatty acid receptor 1 (FFAR1, Homo sapiens, UniProt O14842)	agonist, dynamic mass redistribution	CHO cells expressing FFA1	5 min		0.4 ± 0.03 µM
CC1=CC(C)(C)N(C(=O)CN2C(=O)c3ccccc3C2=O)c2ccccc21	MCOLN3	calcium flux, agonist, Fluo-8 calcium	HEK293 expressing TRPML3			0.93 ± 0.2 µM
O=C(/C=C/C=C/c1ccc2c(c1)OCO2)N1CCCCC1	Nuclear receptor subfamily 1 group I member 2 (NR1I2, Homo sapiens, UniProt O75469)	reporter gene, agonist, measured: CYP3A4 promoter luciferase	HepG2 transfected with PXR	24 h		2.5 µM
CC1CCN(c2nc(C(F)(F)F)ccc2CCNC(=O)C(C)c2ccc(NS(C)(=O)=O)c(F)c2)CC1 (stereo not shown)	TRPV1	45Ca2+ uptake, agonist	CHO expressing human TRPV1		baseline: capsaicin 1 µM maximal response	> 3 µM
Cc1cc(C)c(C2=NOC3C4CCC(C4)C23)c(C)c1 (stereo not shown)	MCOLN3	calcium flux, agonist, Fluo-8 calcium	HEK293 expressing TRPML3			1.13 ± 0.16 µM
